# Measurements pooled from the literature.
# Protocols differ between the studies behind these lines. Numbers after ± are the reported error.
# HLA class I histocompatibility antigen, B alpha chain allele B*18:01: HLA class I histocompatibility antigen, B alpha chain, allele B*18:01 (Homo sapiens, UniProt P01889)
# cas9: CRISPR-associated endonuclease Cas9/Csn1 (cas9, Streptococcus pyogenes serotype M1, UniProt Q99ZW2)
# ACHE: Acetylcholinesterase (ACHE, Homo sapiens, UniProt P22303)
# Sequence of UniProt P22303 (whole entry, looked up): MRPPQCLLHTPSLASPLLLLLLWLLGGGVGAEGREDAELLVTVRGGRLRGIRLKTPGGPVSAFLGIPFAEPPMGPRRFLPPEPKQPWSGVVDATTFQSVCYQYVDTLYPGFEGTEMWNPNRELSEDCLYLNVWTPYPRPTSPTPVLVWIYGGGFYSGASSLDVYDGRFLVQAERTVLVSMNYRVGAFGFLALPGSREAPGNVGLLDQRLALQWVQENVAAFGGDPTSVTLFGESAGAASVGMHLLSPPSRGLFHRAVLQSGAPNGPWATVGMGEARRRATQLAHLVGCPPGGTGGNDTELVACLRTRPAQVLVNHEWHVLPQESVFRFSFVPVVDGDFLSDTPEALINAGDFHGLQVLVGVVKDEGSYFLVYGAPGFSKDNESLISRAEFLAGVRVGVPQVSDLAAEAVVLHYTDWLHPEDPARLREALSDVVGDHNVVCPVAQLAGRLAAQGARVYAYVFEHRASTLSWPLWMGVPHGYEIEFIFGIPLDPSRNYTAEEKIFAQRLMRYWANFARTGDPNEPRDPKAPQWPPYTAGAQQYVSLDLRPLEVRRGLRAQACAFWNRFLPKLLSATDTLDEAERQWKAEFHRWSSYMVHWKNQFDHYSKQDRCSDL
# Sequence of UniProt P0A7E5 (whole entry, looked up): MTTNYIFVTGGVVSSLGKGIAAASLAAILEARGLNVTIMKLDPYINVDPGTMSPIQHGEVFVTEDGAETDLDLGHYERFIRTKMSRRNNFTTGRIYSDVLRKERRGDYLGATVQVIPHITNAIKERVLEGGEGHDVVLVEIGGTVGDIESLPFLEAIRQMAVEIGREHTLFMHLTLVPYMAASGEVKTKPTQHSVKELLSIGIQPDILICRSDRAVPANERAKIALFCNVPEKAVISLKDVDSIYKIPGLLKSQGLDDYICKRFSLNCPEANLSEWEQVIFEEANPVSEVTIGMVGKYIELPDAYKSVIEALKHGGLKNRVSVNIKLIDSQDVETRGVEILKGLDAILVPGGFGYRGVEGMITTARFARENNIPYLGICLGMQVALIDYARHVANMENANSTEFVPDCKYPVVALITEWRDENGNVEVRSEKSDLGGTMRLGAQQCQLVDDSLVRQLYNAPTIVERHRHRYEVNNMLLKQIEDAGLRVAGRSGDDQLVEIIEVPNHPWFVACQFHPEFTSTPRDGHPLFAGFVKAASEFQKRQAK
# Sequence of UniProt P23979 (whole entry, unmodified, looked up): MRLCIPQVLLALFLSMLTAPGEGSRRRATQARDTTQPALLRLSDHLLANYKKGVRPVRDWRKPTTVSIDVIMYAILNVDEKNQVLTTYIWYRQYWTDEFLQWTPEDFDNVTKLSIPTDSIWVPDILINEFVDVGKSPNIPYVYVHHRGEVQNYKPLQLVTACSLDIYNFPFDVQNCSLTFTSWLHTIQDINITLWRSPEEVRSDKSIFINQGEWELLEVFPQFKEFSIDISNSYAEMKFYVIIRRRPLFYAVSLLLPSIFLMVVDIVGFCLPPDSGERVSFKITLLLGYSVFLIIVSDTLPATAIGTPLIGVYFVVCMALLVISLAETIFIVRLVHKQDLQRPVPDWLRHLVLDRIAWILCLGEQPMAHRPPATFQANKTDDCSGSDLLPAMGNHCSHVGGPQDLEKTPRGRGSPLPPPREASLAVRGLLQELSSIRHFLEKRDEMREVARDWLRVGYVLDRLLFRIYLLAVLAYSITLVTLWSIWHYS
# Sequence of UniProt P08069 (whole entry, looked up): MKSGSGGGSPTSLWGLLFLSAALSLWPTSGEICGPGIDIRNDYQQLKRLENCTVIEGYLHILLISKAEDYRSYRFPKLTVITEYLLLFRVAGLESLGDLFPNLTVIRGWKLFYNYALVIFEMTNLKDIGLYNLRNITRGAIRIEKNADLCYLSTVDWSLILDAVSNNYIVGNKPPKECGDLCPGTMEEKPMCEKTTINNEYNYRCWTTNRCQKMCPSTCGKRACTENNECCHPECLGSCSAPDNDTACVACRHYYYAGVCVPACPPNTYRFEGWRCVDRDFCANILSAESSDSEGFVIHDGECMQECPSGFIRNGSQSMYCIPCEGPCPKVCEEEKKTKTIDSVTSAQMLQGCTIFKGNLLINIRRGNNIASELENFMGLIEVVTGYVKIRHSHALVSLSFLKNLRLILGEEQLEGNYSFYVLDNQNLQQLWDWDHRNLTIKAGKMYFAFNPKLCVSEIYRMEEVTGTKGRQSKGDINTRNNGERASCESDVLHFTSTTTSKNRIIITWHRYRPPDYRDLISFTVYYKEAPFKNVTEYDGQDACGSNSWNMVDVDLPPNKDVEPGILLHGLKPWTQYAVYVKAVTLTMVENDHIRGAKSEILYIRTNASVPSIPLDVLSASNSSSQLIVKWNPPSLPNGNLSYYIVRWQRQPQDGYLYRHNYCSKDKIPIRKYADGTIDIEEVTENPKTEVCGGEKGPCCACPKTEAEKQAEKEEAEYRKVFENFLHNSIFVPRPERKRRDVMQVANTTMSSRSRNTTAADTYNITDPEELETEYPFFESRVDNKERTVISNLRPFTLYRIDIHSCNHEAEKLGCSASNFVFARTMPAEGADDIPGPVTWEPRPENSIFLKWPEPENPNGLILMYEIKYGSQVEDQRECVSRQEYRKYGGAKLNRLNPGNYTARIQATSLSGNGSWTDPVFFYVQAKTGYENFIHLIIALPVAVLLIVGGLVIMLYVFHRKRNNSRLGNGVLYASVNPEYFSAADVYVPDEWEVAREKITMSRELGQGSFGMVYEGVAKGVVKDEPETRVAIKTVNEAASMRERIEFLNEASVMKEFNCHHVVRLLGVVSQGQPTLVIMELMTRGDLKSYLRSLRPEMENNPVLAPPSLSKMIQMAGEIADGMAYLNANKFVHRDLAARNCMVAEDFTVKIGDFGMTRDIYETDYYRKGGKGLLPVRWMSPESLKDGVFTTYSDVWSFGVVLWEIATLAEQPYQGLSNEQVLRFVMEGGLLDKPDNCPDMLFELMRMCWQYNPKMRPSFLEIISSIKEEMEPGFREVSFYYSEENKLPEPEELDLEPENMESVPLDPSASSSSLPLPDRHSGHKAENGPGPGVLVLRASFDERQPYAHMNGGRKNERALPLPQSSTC
# Sequence of UniProt P23946 (whole entry, looked up): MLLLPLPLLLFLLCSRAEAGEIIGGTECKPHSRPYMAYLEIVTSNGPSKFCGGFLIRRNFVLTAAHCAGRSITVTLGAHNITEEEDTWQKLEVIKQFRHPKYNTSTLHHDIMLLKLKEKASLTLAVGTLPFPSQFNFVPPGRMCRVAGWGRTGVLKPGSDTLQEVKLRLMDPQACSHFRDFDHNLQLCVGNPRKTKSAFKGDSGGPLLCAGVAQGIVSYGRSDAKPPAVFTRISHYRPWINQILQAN
# Sequence of UniProt P29350 (whole entry, looked up): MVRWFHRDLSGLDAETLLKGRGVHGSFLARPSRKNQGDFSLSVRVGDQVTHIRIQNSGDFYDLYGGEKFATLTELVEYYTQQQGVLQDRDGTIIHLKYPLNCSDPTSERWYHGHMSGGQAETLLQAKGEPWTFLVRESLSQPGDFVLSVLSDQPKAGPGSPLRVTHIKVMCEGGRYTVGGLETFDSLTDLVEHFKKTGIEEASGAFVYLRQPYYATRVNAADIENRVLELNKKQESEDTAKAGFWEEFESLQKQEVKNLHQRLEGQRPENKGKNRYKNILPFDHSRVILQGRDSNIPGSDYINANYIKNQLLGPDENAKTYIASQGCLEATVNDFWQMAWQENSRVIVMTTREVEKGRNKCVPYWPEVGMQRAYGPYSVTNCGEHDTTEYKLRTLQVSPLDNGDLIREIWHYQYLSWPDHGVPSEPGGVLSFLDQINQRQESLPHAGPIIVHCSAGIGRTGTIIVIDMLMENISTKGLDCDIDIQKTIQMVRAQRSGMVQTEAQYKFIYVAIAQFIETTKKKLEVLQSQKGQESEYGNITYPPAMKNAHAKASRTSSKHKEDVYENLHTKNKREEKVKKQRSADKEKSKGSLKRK
# Sequence of UniProt Q96LB2 (whole entry, looked up): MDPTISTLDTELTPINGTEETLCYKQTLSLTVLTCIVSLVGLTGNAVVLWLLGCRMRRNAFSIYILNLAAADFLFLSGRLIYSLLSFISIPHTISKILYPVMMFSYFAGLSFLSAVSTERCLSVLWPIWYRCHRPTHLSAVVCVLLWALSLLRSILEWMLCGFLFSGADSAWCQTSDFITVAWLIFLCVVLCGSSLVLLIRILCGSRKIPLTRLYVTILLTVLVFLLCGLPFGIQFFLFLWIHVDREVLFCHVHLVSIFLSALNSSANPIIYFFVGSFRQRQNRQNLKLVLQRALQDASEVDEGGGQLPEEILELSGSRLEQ
# Sequence of UniProt Q9UGM1 (whole entry, looked up): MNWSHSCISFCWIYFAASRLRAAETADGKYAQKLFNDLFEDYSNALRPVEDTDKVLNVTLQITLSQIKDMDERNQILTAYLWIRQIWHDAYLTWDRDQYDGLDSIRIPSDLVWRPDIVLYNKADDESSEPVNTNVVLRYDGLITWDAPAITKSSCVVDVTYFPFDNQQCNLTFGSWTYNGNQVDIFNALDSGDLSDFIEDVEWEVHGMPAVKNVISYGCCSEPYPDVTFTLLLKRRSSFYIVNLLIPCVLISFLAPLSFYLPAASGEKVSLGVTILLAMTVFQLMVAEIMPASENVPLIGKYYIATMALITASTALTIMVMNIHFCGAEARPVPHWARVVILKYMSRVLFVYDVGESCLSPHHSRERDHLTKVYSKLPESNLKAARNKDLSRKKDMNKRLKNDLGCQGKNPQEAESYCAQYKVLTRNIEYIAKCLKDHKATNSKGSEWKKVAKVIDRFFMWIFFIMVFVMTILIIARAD
Compound,tested on,test,test system,setting,scale,endpoint,value
CN(C)C(=O)C(CCN1CCC(O)(c2ccc(Cl)cc2)CC1)(c1ccccc1)c1ccccc1,"Calcium-activated potassium channel subunit alpha-1, with LRRC26 γ1 subunit (KCNMA1, Homo sapiens, UniProt Q12791)","BK channel conductance, inhibitor, inside-out patch clamp",,"BKα/γ1, Vm 110 mV, nominally Ca2+-free",,IC50,2.4 ± 0.36 µM
COc1cc(CCC[P+](c2ccccc2)(c2ccccc2)c2ccccc2)c(OC)c2c1OCO2.[I-],MDA-MB-435,SRB,,,,TGI,-5.23 log M
CC(C)[C@H](NC(=O)[C@@H](NC(=O)[C@H](CCCNC(=N)N)NC(=O)[C@H](C)NC(=O)[C@H](C)NC(=O)[C@H](CCC(=O)O)NC(=O)[C@H](CO)NC(=O)[C@H](C)NC(=O)[C@@H](N)Cc1ccccc1)C(C)C)C(=O)O,"HLA class I histocompatibility antigen, B alpha chain allele B*18:01","peptide-MHC binding, radioligand competition binding",,,,IC50,49.5 µM
CC(=O)N1C[C@@H](CCN2CC=C(c3c[nH]c4cc(Cl)ccc34)CC2)c2ccccc21,"SLC6A4 (Homo sapiens, UniProt P31645, R104K)",,,,,IC50,0.243 µM
CC[C@H](C)[C@H](NC(=O)[C@H](C)NC(=O)[C@H](CCCCN)NC(=O)[C@H](CC(C)C)NC(=O)[C@H](C)NC(=O)[C@@H](NC(=O)[C@H](Cc1c[nH]cn1)NC(=O)[C@H](CC(C)C)NC(=O)[C@@H](NC(=O)[C@@H](NC(=O)[C@H](CCCCN)NC(=O)[C@H](C)NC(=O)[C@H](C)NC(=O)[C@H](CO)NC(=O)[C@H](CCCCN)NC(=O)[C@H](Cc1ccccc1)NC(=O)[C@@H](NC(=O)[C@H](CCCCN)NC(=O)[C@H](CC(C)C)NC(=O)[C@H](Cc1ccccc1)NC(=O)[C@H](CO)NC(=O)[C@H](CCCCN)NC(=O)[C@H](Cc1c[nH]c2ccccc12)NC(=O)[C@H](CCCCN)NC(C)=O)[C@@H](C)O)[C@@H](C)O)C(C)C)[C@@H](C)O)C(=O)N[C@@H](CO)C(=O)N[C@@H](CO)C(N)=O,Staphylococcus aureus,,ATCC 29213,,,MIC90,8 µg/mL
CC(C)C[C@H](NC(=O)[C@@H](N)CCC(N)=O)C(=O)N[C@H](C(=O)N1CCC[C@H]1C(=O)N[C@H](C(=O)N[C@@H](Cc1c[nH]c2ccccc12)C(=O)N[C@@H](CCCNC(=N)N)C(=O)N[C@H](C(=O)N[C@@H](Cc1ccc(O)cc1)C(=O)O)C(C)C)[C@@H](C)O)[C@@H](C)O,"HLA class I histocompatibility antigen, B alpha chain (Homo sapiens, UniProt P01889)","peptide-MHC binding, radioligand competition binding",,,,IC50,> 70 µM
C[n+]1c2cc(N)ccc2cc2ccc(N)cc21,cas9,linear substrate,Streptococcus pyogenes,,,IC50,10 to 20 µM
Cc1nccn1CC1CCc2c(c3ccccc3n2C)C1=O (stereo not drawn),"Htr3a (Mus musculus, UniProt P23979, W183X)",,,,,IC50,0.59 ± 0.08 µM
Cc1cnc(CNC(=O)c2c(=O)c3ccc(N4CCCN(C)CC4)nc3n3c2sc2ccccc23)cn1,cas9,linear substrate,Streptococcus pyogenes,,,IC50,10 to 20 µM
CO[C@H]1C[C@@H]2CC[C@@H](C)[C@@](O)(O2)C(=O)C(=O)N2CCCC[C@H]2C(=O)O[C@H]([C@H](C)C[C@@H]2CC[C@@H](OC(=O)NCCOCCOCCOCCOCCOCCOCCOCCOCCC(=O)N3CCc4cc(Cn5nc(-c6ccc7oc(N)nc7c6)c6c(N)ncnc65)ccc4C3)[C@H](OC)C2)C[C@@H](O)[C@H](C)/C=C(\C)[C@@H](O)[C@@H](OC)C(=O)[C@H](C)C[C@H](C)/C=C/C=C/C=C/1C,,,patients with advanced solid tumours,"intravenous, 12 mg weekly, any grade",,mucositis incidence,58.3%
COc1cc(Nc2ncc(F)c(Nc3ccc4c(n3)NC(=O)C(C)(C)O4)n2)cc(OC)c1OC,"PTPN6 (Homo sapiens, UniProt P29350)","enzyme activity, inhibitor",,,,IC50,> 10 µM
C=CCSSCC=C,"uncharacterized protein (Bradysia odoriphaga, UniProt A0A2S0X9G4)","binding, competitive fluorescence displacement",,pH 7.4,,IC50,10 µM
CCC(C(=O)Nc1cc(NC2CCOCC2)ccc1C)n1cc(Br)cc2nc(SCc3ccc(F)cc3)nc1-2 (stereo not drawn),"CAPN1 (Homo sapiens, UniProt P07384)",enzyme activity,,,,IC50,> 100 µM
C[C@H]1CN(c2n[nH]c3nc(N[C@H]4CC[C@H](NS(=O)(=O)CCC(F)(F)F)CC4)ncc23)CCO1,"IGF1R (Homo sapiens, UniProt P08069)",biochemical,,,,IC50,≥ 20 µM
COc1ccc(N2C(=O)N(c3c(C)cccc3Cl)Cc3cnc(Nc4ccc(C5CCN(C)CC5)cc4OC)nc32)nc1,"TNIK (Homo sapiens, UniProt Q9UKE5)",kinase activity,,0.5 µM,,inhibition,24%
CCCCCCCCOc1ccccc1C(=O)Nc1ccc(C(=O)OCC[N+](C)(CC)CC)cc1,cas9,circular plasmid substrate,Streptococcus pyogenes,,,IC50,100 to 200 µM
C[C@@H](O)[C@@H](CO)NC(=O)[C@@H](CCCNC(=N)N)NC(=O)[C@@H]1CCCN1C(=O)[C@@H]1CSSC[C@H](NC(=O)[C@H](Cc2ccccc2)NC(=O)CN2CCN(CC(=O)O)CCN(CC(=O)O)CCN(CC(=O)O)CC2)C(=O)N[C@@H](Cc2ccc(O)cc2)C(=O)N[C@@H](Cc2ccccc2)C(=O)N[C@@H](CCC(N)=O)C(=O)N[C@@H](CC(N)=O)C(=O)N1 [gallium-68 labelled],,,"Wistar rat, bone","intravenous, 8 MBq, 60 min, group mean",,tissue uptake,0.27 %ID/g
CN1CCN(c2cc(-c3ccncc3)c(-c3ccc4ccccc4c3)nn2)CC1,"MRGPRX1 (Homo sapiens, UniProt Q96LB2)","antagonist, FLIPR",,10 µM,,inhibition,26.1%
CC[C@H](C)[C@H](NC(=O)[C@H](Cc1ccccc1)NC(=O)[C@H](CCC(=O)O)NC(=O)[C@H](CCCNC(=N)N)NC(=O)[C@H](C)NC(=O)[C@H](C)NC(=O)[C@H](CCC(N)=O)NC(=O)[C@H](CCC(=O)O)NC(=O)[C@H](CCC(=O)O)NC(=O)[C@H](CC(C)C)NC(=O)[C@H](Cc1ccc(O)cc1)NC(=O)[C@H](CO)NC(=O)[C@H](CO)NC(=O)[C@@H](NC(=O)[C@H](CC(=O)O)NC(=O)[C@H](CO)NC(=O)[C@@H](NC(=O)[C@H](Cc1ccccc1)NC(=O)[C@@H](NC(=O)CNC(=O)[C@H](CCC(=O)O)NC(=O)[C@H](C)NC(=O)CCc1c[nH]cn1)[C@@H](C)O)[C@@H](C)O)C(C)C)C(=O)N[C@@H](C)C(=O)N[C@@H](Cc1c[nH]c2ccccc12)C(=O)N[C@@H](CC(C)C)C(=O)N[C@H](C(=O)N[C@@H](CCCNC(=N)N)C(=O)NCC(=O)N[C@@H](CCCNC(=N)N)C(=O)N[C@@H](CCCCNC(=O)COCCOCCNC(=O)COCCOCCNC(=O)CC[C@H](NC(=O)CCCCCCCCCCCCCCCCC(=O)O)C(=O)O)C(=O)NCC(=O)NCC(=O)N[C@@H](CO)C(=O)N[C@@H](CCCCNc1c(NCCCCCN(O)C(=O)CCC(=O)NCCCCCN(O)C(=O)CCC(=O)NCCCCCN(O)C(C)=O)c(=O)c1=O)C(=O)O)C(C)C [zirconium-89 labelled],,,"rat, pancreas","sc, 3 nmol/kg, 168 h, ex vivo",,tissue uptake,0.08 %ID/g
CNC(=O)Oc1cccc2c1OC(C)(C)O2,"Acetylcholinesterase (Rhipicephalus microplus, UniProt O45210, W384F)",,,,,IC50,0.018 µM
CNC(C)Cc1ccc2nonc2c1 (stereo not drawn),"SLC6A4 (Homo sapiens, UniProt P31645)",,,,,IC50,23.9 ± 5 µM
C[C@H]1COCCN1c1nc(NCc2cccnc2C(F)(F)F)c2cccnc2n1,human phosphodiesterase 3,,,,,IC50,> 100 µM
COc1cc2c(Oc3ccc4[nH]c(C)cc4c3F)ccnc2cc1OCC1(N)CC1,,,paediatric recurrent refractory sarcoma,"concentration not given, whole group",,grade 3 Thrombocytopenia,0%
CCN1CCN(Cc2ccc(Nc3nc4nc(Oc5ccnc(NC(C)=O)c5)ncc4[nH]3)cc2C(F)(F)F)CC1,"Protein kinase 6 (Plasmodium falciparum, UniProt Q8IDW1)","enzyme activity, inhibitor",,,,IC50,6.3 ± 0.7 µM
CN(C)c1ccc(Nc2c3ccc(NC(=O)CCN4CCCC4)cc3nc3cc(NC(=O)CCN4CCCC4)ccc23)cc1,"Gag polyprotein, nucleocapsid protein p7 (gag, Human immunodeficiency virus type 1 group M subtype B, UniProt P04591)","NCp7-RNA binding, AlphaScreen",HIV-1,"together with: 25 nM NCp7, 12.5 nM RNA",,IC50,1.29 µM
Nc1ccn([C@@H]2O[C@H](COP(=O)(O)OP(=O)(O)OP(=O)(O)O)[C@@H](O)[C@H]2O)c(=O)n1,"pyrG (Escherichia coli, UniProt P0A7E5)",enzyme activity,,"together with: 6.0 mM glutamine, 1.0 mM ATP, 0.20 mM UTP",,IC50,234 µM
COc1c(CCC[P+](c2ccccc2)(c2ccccc2)c2ccccc2)cc2c(c1OC)OCO2.[I-],SNB-19,SRB,,,,LC50,> -4 log M
Cn1c(=O)n(CCCCN2CCC3(CC2)OCc2ccccc23)c2ccccc21,"Slc6a3 (Rattus norvegicus, UniProt P23977)","dopamine uptake, inhibitor",rat striatal synaptosomes,together with: [3H]dopamine,,IC50,6.01 µM
Oc1ccc2c3c1O[C@H]1[C@@H](O)CC[C@@]4(O)[C@@H](C2)N(CC2CCC2)CC[C@]314,"LPAR5 (Homo sapiens, UniProt Q9H1C0)","β-arrestin recruitment, TANGO luminescence, item: GPR92",,concentration not given,relative to: basal luminescence,log2 fold change,0.284
COc1cccc(C2c3ccc(OCC(=O)c4ccc(Cl)cc4)cc3Oc3nc4c(c(N)c32)CCCC4)c1 (stereo not drawn),ACHE,"enzyme activity, inhibitor",,,,IC50,6.01 µM
C[C@]1(CO)Cc2ncn(-c3ccc(C#N)c(Cl)c3)c2C(=O)O1,,,"human, Chinese",20 mg single dose,,subjects with drug-related dizziness,0%
CC[C@H](C)[C@@H]1NC(=O)[C@@H]2CCCN2C(=O)[C@H](CC(C)C)NC(=O)[C@H](CC(C)C)NC(=O)CNC(=O)[C@@H](NC(=O)[C@@H](NC(=O)[C@H](CC(=O)O)NC(=O)CNC(=O)[C@@H](NC(=O)[C@H](C)NC(=O)CNC(=O)[C@H](CCCCN)NC(=O)[C@H](CC(C)C)NC(=O)[C@H](CC(C)C)NC(=O)[C@H](CCCCN)NC(=O)CNC(=O)[C@@H](NC(=O)[C@@H](N)CC(C)C)C(C)C)C(C)C)C(C)C)CSSC[C@@H](C(=O)O)NC1=O,,"RNA-seq, item: Ccdc39","mouse, traumatic brain injury model, frontal cortex and hippocampus",dose not given,relative to: TBI alone,log2 fold change,0.869
COc1cccc(C2c3ccc(OS(=O)(=O)c4ccccc4)cc3Oc3nc4c(c(N)c32)CCCC4)c1 (stereo not drawn),ACHE,"enzyme activity, inhibitor",,,,IC50,2.46 µM
CN(C)CCC=C1c2ccccc2CCc2ccccc21,"Neuronal acetylcholine receptor; alpha9/alpha10 (Homo sapiens, UniProt Q9GZZ6+Q9UGM1)",inhibitor,,,,IC50,0.49 ± 0.13 µM
CCOP(=S)(OCC)SCSCC,ACHE,"enzyme activity, inhibitor",,,,IC50,185 ± 26.8 µM
CC(C)C[C@H](NC(=O)[C@H](Cc1ccccc1)NC(=O)c1cnccn1)B(O)O,"Chymase (CMA1, Homo sapiens, UniProt P23946)","enzyme activity, inhibitor",,together with: FP-biotin 1 µM,,IC50,4.65 µM
CC[C@H](C)[C@H](NC(=O)[C@@H](N)CCC(=O)O)C(=O)N[C@@H](CCCCN)C(=O)N[C@@H](CCC(=O)O)C(=O)N[C@@H](CO)C(=O)N[C@H](C(=O)N[C@@H](CCC(N)=O)C(=O)N[C@H](C(=O)N[C@@H](Cc1ccccc1)C(=O)O)[C@@H](C)O)C(C)C,"HLA class I histocompatibility antigen, B alpha chain allele B*18:01","peptide-MHC binding, radioligand competition binding",,,,IC50,> 70 µM
CCCCCCCCc1ccc(CCC(N)(CO)CO)cc1,cas9,linear substrate,Streptococcus pyogenes,,,IC50,20 to 50 µM
Nc1c2c(nc3c1C(c1cccc(Br)c1)c1ccc(OCC(=O)c4ccccc4)cc1O3)CCCC2 (stereo not drawn),ACHE,"enzyme activity, inhibitor",,,,IC50,1.14 µM

# A few entries again:
Compound,tested on,test,test system,setting,scale,endpoint,value
C[C@H]1COCCN1c1nc(NCc2cccnc2C(F)(F)F)c2cccnc2n1,human phosphodiesterase 3,,,,,IC50,> 100 µM
COc1cc2c(Oc3ccc4[nH]c(C)cc4c3F)ccnc2cc1OCC1(N)CC1,,,paediatric recurrent refractory sarcoma,"concentration not given, whole group",,grade 3 Thrombocytopenia,0%
CCN1CCN(Cc2ccc(Nc3nc4nc(Oc5ccnc(NC(C)=O)c5)ncc4[nH]3)cc2C(F)(F)F)CC1,"Protein kinase 6 (Plasmodium falciparum, UniProt Q8IDW1)","enzyme activity, inhibitor",,,,IC50,6.3 ± 0.7 µM
CN(C)c1ccc(Nc2c3ccc(NC(=O)CCN4CCCC4)cc3nc3cc(NC(=O)CCN4CCCC4)ccc23)cc1,"Gag polyprotein, nucleocapsid protein p7 (gag, Human immunodeficiency virus type 1 group M subtype B, UniProt P04591)","NCp7-RNA binding, AlphaScreen",HIV-1,"together with: 25 nM NCp7, 12.5 nM RNA",,IC50,1.29 µM
Nc1ccn([C@@H]2O[C@H](COP(=O)(O)OP(=O)(O)OP(=O)(O)O)[C@@H](O)[C@H]2O)c(=O)n1,"pyrG (Escherichia coli, UniProt P0A7E5)",enzyme activity,,"together with: 6.0 mM glutamine, 1.0 mM ATP, 0.20 mM UTP",,IC50,234 µM
COc1c(CCC[P+](c2ccccc2)(c2ccccc2)c2ccccc2)cc2c(c1OC)OCO2.[I-],SNB-19,SRB,,,,LC50,> -4 log M
